Published values gathered from unrelated publications.
Numbered parts are unrelated; each lists some results of a single study. Substitutions count along the parent as printed.

Block 1 — method: protein-binding microarray; form: double-stranded DNA, one strand shown; medium: in vitro; concentration: 0.8 µM; setting: whole 60-bp probe, no competitor; direction: higher = stronger binding
Target: Centromere-binding protein 1, full length, N-terminal tag (CBF1, Saccharomyces cerevisiae, UniProt P17106, residues 1-351)
UniProt P17106, sequence (whole entry, looked up): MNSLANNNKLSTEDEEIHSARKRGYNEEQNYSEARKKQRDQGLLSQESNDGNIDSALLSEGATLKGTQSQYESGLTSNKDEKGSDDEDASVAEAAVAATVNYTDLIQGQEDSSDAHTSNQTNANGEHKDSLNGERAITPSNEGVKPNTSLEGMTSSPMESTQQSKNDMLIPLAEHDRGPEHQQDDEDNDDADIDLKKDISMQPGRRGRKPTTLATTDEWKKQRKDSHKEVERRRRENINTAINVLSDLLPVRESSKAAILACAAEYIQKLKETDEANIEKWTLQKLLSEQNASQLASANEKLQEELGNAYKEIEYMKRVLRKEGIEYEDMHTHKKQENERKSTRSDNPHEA
Oligonucleotide | fluorescence intensity
GAAATTGTTTATTTACACGCAACCCCAGGACATTAGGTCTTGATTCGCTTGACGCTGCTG | 576 a.u.
CCTAACTACTATAAGTTCGTGCTATAGCTTCGTACAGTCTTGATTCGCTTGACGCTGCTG | 481 a.u.
GAAAGTTAAGGTATAGGCGTGATGCCATGGGAGTAGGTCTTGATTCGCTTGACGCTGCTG | 616 a.u.
GAACGGTCCGGGTGACACGTCCGCCGTGCTTCATAGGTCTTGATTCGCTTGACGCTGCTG | 518 a.u.
GAACTGTCAAGGTTCCTCGTGACTTTGACGAATTAGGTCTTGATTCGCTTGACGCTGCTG | 1840 a.u.
GAATACCGCAAGCACCACCAACACACCCGCCGCTAGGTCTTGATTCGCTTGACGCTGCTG | 503 a.u.
TGTACGAAGCTATATCAGCAGATTATAGTAGTTAGGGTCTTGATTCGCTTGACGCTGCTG | 512 a.u.
CCTAACTACTATAATGGCACGTGATAGCTTCGTACAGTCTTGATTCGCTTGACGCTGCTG | 13200 a.u.
CCTAACTACTATATTCACGTTTAATAGCTTCGTACAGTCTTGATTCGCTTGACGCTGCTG | 560 a.u.
CTATGCTGGTAATCTCAGCTGAAAGGCTGCCTTTTCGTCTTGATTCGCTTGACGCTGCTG | 500 a.u.
CTAATTTCATATTTTCATCTGATTTTTTTTCTGTTCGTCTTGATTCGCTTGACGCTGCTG | 483 a.u.
TGTACGAAGCTATGTGACTCAATTATAGTAGTTAGGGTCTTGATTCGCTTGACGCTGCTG | 560 a.u.
GAATACGTACAACGTGATATTTTCCGATTTTCCTAGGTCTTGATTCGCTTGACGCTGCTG | 1280 a.u.
TGTACGAAGCTATACTGATGCATTATAGTAGTTAGGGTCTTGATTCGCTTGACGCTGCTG | 507 a.u.
CTATCAACTAGTAGTCACATTAGTAGTGTATTATTCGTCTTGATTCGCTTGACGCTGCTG | 543 a.u.

Block 2 — method: EMSA with sequencing; form: double-stranded DNA, one strand shown; medium: in vitro; concentration: 10 and 20 nM; relative to: negative control set to 0; direction: higher = stronger binding
Target: Hepatocyte nuclear factor 3-alpha (Foxa1, Mus musculus, UniProt P35582, residues 1-468, full length assumed)
Setting: whole designed probe, mean of two concentrations, ends assumed
Target sequence (chain): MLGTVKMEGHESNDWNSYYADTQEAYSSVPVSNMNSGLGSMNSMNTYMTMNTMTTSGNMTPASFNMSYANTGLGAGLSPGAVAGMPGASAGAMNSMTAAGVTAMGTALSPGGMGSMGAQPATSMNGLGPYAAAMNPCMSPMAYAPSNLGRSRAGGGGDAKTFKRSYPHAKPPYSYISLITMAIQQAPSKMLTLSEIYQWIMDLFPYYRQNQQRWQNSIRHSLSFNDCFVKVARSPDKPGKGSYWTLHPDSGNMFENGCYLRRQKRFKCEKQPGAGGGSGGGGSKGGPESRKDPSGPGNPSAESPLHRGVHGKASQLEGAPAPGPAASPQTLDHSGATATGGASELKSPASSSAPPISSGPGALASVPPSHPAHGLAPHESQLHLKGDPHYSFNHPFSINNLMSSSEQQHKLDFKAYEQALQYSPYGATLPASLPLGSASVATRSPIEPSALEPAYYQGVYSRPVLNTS
Oligonucleotide | normalised bound fraction
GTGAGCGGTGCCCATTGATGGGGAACTTTATGCTTTGTTTGAATAACAAGAATGGAGGAGATAAGGGGAACAACTGTACTTCCTAATGGTTAGTCCACAAAAAGCCATTAGCATTCACTGTAAACAGCATTCATCAATGTGCTGTCTTAGGTCAGGATCAACTTCCTTATCTAAACTTGAGAAGGGACTGCCCTTTTTTCTCTATCTCACTTATAATACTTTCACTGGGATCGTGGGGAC | 0.281 ratio
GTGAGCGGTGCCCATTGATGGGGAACCATGTACAAACAAAATATGGGTTGTGTAATTTCAGTAATTCCATGTACAAGTTAAACACTCTGATTGCACAATATATTTGCATTTAAAATGTCGTAAACATGAATGCTAACAATCTTTTTTTTTTTTCCTGAGACGGAGTCTTGCTCTATCGCCCAGGCTGGAGTGCAGCGGCACAATCTCTGCTTACTGCCATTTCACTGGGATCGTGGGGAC | 0.306 ratio
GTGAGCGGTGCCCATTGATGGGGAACCTGTTTGCTCAGAACCCTTCTCCCCACTTCCCCTCACCCTTTGGACCCTGGAACACACCAGGCCCATTCCTGAGGGCTTGAGAGCTGGGATCTCTGTTTACTCAGATAGGTTGTGCTGTCCTGGCCCTAAGGGCCCTAAGGGCTCTGCCTTCTGGGAGGTCCCTGAGCTGGTGCCAGGATGGGCAGTGGGCTGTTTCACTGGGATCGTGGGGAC | 0.399 ratio
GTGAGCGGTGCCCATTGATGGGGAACAACTTTCATGCACAAAAAGACACATGAGCATCATCTAATAAATATTCCTTCTTGTTACAGATGAGAAACAGGCTGGGCATGGTGACTCATGCCAGATTACCCAGCACTTTACAAGGCCAAGATGGGAGGATCACTTGAGCCCAGGGGCTCGAGACCAGCCTGGGCAACATGGTGAGACCTCATCTCTACAAAATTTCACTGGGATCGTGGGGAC | 0.265 ratio
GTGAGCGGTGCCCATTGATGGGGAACGGGACTGTTTACTCTCTGTACAGAGTAAGCCCCAGGGACTTTTCTGGTTGCAAAAGTAATCCTGGTACTTTCTGGATTTTCACTAGATTAAAGTAAACAAGAACAATATAACAGGCAAACTCCTTAAGTTAGACATCACTTACACATATCATAAGAGGAAAATAATTTATAAATGTTCCCAAATTTTCCTCCATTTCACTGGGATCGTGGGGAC | 0.461 ratio
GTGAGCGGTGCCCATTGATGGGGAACCTGTTTATACTCCGAAGTTCTTTTCCCTTGATCTGTATAAGACACAATAGATGATAACAGCTGATTGAGAATAGTTAGTCTAGTGTATAAATATGTAAACATGGGTAAGTATGTATTTAGACAATTTAAAAGTGTGTCTCATTTACCCAATTATAAACAGCTGTCTGAGAGCAATTACGATTTATCATGTAAATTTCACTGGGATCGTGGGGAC | 0.305 ratio
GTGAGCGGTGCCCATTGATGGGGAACGCGACGGCGCCCAATGAGCGGCCAGGATGTTGGAGCGCCGGCGGCGGTCCGGGCGCTCGCTGGCTGAGGGACGGCGGCCGCCGCGTTGATGCTTGTTTGCTTTCAATGAAAACGAGGGGGGCGCGGAGGAGGAGGCGGCGGCGTCGGTGGCGGCGGCGACGGCGGCGCGGAGGCGAAGGCAGCGGCGGGCGCATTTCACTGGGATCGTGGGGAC | 0.174 ratio
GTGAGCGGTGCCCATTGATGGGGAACCATTAGAGTCAAAGTTGTTAAGGGGAGCTAGTCATAGCTACCACGTGGCCAGGCATGTGGAACCAGACACCAGGCACAATGAATCATCACATCTATTTACTTTAAATAATGCTGACAACCTAGTTCATAGTGACACACTACTTGAGATATATAGAATAACATTATTACCCAGTAAGTATGTGAACATTCCGATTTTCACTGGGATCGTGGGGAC | 0.348 ratio

Block 3 — method: DHFR PCA, dose-response; medium: yeast; setting: Hill fit, mean, not affinity; added: (+)-ABA, dose series; direction: lower = more sensitive
Target: ABI1, truncated, D143A, DHFR fusion (Arabidopsis thaliana, UniProt P49597)
Starting sequence: PYL1, truncated, DHFR fusion (Arabidopsis thaliana, UniProt Q8VZS8); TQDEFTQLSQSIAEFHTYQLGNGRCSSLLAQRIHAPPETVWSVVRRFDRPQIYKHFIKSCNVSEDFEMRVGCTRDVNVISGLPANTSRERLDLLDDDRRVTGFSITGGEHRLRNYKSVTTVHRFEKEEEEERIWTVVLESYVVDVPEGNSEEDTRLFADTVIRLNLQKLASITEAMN
Substitution | ABA EC50 [µM]
S11W | 2.14
K126L | 1.69
V70A | 5.12
L20F | 4.72
T160K | 9.74
Q19V | 1.92
G148H | 12.9
E151Y | 5.67
F15W | 2.65

Mixed results — H2AC14: H2AC14 (Homo sapiens, UniProt Q99878)
Molecule | tested on | test | system | setting | scale | quantity | value
H2BC9 (Homo sapiens, UniProt Q93079) | H2AC14 | cross-linking MS |  | hits only |  | interaction screen | cross-linked
PhoQ, residues 284 288 289 292 302 303 SLSLLA | PhoP, residues 12 14 15 18 19 HEGLL (Escherichia coli, UniProt P23836) | Sort-seq, item: YFP reporter | E. coli | PhoQ-PhoP variant library, added: 10 µM Mg2+ | relative to: high Mg2+ state, higher = stronger signaling | fold induction | 84.8
NCL (Homo sapiens, UniProt P19338) | PDCD11 (Homo sapiens, UniProt Q14690) | cross-linking MS | cell fractions | added: DMTMM |  | cross-linked residues | E590 to K1524
H2BC12 (Homo sapiens, UniProt O60814) | H2AC14 | cross-linking MS |  | hits only |  | interaction screen | cross-linked

Some of these lines once more (mixed results):
Molecule | tested on | test | system | setting | scale | quantity | value
H2BC9 (Homo sapiens, UniProt Q93079) | H2AC14 | cross-linking MS |  | hits only |  | interaction screen | cross-linked
H2BC12 (Homo sapiens, UniProt O60814) | H2AC14 | cross-linking MS |  | hits only |  | interaction screen | cross-linked
PhoQ, residues 284 288 289 292 302 303 SLSLLA | PhoP, residues 12 14 15 18 19 HEGLL (Escherichia coli, UniProt P23836) | Sort-seq, item: YFP reporter | E. coli | PhoQ-PhoP variant library, added: 10 µM Mg2+ | relative to: high Mg2+ state, higher = stronger signaling | fold induction | 84.8
NCL (Homo sapiens, UniProt P19338) | PDCD11 (Homo sapiens, UniProt Q14690) | cross-linking MS | cell fractions | added: DMTMM |  | cross-linked residues | E590 to K1524
